Measured values from different studies.
Parts stem from different laboratories: compare values within a part only. Changes are numbered by the printed parent chain.

Block 1
Target: Fragile X messenger ribonucleoprotein 1, C-terminal low-complexity region (Fmr1, Mus musculus, UniProt P35922)
Technique: RNA Bind-n-Seq
Form: RNA
Medium: in vitro
Tested at: 200 nM
Setting: whole 134-nt RNA, ends assumed
Together with: 150 mM LiCl
Reference: input library
Reading: higher = stronger binding
Each molecule: 7-deaza-guanosine replaces G
Constant ends, left off below: GGGAGUUCUACAGUCCGACGAUC … UGGAAUUCUCGGGUGUCAAGG
| Oligonucleotide | log2 enrichment |
| --- | --- |
| UGGGAGGUGGAUUUUGUUUAUUUUUCUAGCUCAUUUCCAGGGGUGGGAAUUUUUUUUUAAUAUGUGUCAUGAAUAAAGUUGUUUUUGAAA | -0.0513 |
| UCCUGUGCUACACAUCGUAUGUACCGAAUCGGGGUUUUUUUGGGGAGGGGAAAAAGGGGAAAGUAUUAUGUUACGCCGUUCGGAUCUGCA | -0.773 |
| AAGUCCUGUGCUACACAUCGUAUGUACCGAAUCGGGAAAAGGAAAAGGGGAAAAGGAAAGUAUUAUGUUACGCCGUUCGGAUCUGCACUU | -0.842 |
| UUUCUCCACAGGAGCCCCGCAAGUGAGCCAGCCACUGCGAGAGCAGAGUGAGGAUAUACCUGGAGCCAUUUCCUCUGCCCUGGCAGCCAU | 1.13 |
| GUCCUGUGCUACACAUCGUAUGUACCGAAUCGGGUUUGGGUUUUUGGGUUUUUUUGGGAAAGUAUUAUGUUACGCCGUUCGGAUCUGCAC | -1.08 |
| GCAGGAAGUAAAAACAAAUGGAAAUGCUUCGGAUAGUGGCAGGGGUGGGGGUUGCUAAGGAAAGGGUGGGAUGAAAGUGGGUAAAGAGUU | 1.48 |

Block 2
Target: CCNB1, cyclin fold, Cln2 fusion (human)
Technique: yeast growth competition, sequencing
Medium: yeast
Setting: strong parent motif
Reference: not given
Reading: higher = stronger binding
Starting sequence: PKN2 docking peptide (human); VSAVQKLDFSDTM
| Variant | normalised enrichment score |
| --- | --- |
| S10K | 1.24 |
| K6H | 1.48 |
| T12H | 2.03 |
| S2T | 2.29 |
| K6I | 0.397 |
| D11L | 1.46 |

Block 3
Target: Phosphate system positive regulatory protein PHO4, full length, GST-tagged (PHO4, Saccharomyces cerevisiae, UniProt P07270, residues 1-312)
Technique: competition protein-binding microarray
Form: double-stranded DNA, one strand shown
Medium: in vitro
Tested at: 2 µM
Setting: whole 60-bp probe, lowest competitor level
Together with: Cbf1 competitor, 0.05 µM
Reading: higher = stronger binding
Constant ends, left off below: … GTCTTGATTCGCTTGACGCTGCTG
Construct (chain): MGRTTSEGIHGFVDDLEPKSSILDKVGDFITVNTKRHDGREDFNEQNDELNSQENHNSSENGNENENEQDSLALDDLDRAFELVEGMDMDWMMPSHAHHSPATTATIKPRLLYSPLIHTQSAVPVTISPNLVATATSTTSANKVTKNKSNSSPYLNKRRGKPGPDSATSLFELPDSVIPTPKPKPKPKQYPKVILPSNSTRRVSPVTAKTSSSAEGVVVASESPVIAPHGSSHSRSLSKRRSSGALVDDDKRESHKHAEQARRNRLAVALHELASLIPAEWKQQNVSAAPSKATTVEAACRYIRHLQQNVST
| Oligonucleotide | fluorescence intensity [a.u.] |
| --- | --- |
| CTTCTGTAAATTTGTGGTGTGGGTGGACGCGCCCCG | 4780 |
| TATAAGTATCCTTCAGACGTGCAAATTCTTCAGGGC | 4950 |
| CCTTGTCCAATTCAACACGCTCGATGAAAAAAATAA | 6640 |
| CTTTCCCGATCTTTCCACGTGTTTTTAGCACATTTG | 17800 |
| TATTTTTTTTTTTTTTATTTTGGTAGAATAGATTAC | 3150 |
| AAAGCGGTAATTTGTCACAAGACTTCACATATCTAT | 3940 |
| AACTCTTTTGAAAATTACGTGCCAGAAAACCCAACC | 5220 |

Further values, each from its own experiment
| Molecule | target | test | system | conditions | how to read | measurement | result |
| --- | --- | --- | --- | --- | --- | --- | --- |
| PhoQ, residues 284 288 289 292 302 303 SCCLKL | PhoP, residues 12 14 15 18 19 NMSFL (Escherichia coli, UniProt P23836) | Sort-seq, refers to: YFP reporter | E. coli | PhoQ-PhoP variant library, together with: 10 µM Mg2+ | reference: high Mg2+ state, higher = stronger signaling | fold induction | 7.51 |

For quick reference, copied from above (block 1):
| Oligonucleotide | log2 enrichment |
| --- | --- |
| GCAGGAAGUAAAAACAAAUGGAAAUGCUUCGGAUAGUGGCAGGGGUGGGGGUUGCUAAGGAAAGGGUGGGAUGAAAGUGGGUAAAGAGUU | 1.48 |
| UUUCUCCACAGGAGCCCCGCAAGUGAGCCAGCCACUGCGAGAGCAGAGUGAGGAUAUACCUGGAGCCAUUUCCUCUGCCCUGGCAGCCAU | 1.13 |
| UGGGAGGUGGAUUUUGUUUAUUUUUCUAGCUCAUUUCCAGGGGUGGGAAUUUUUUUUUAAUAUGUGUCAUGAAUAAAGUUGUUUUUGAAA | -0.0513 |
